Assay results pooled from the literature.
Each numbered part is a random draw from the data of one study; scales do not carry over between parts.

Block 1
Target: RING finger protein unkempt homolog, zinc fingers 1-6, GST-SBP tag (UNK, Homo sapiens, UniProt Q9C0B0, residues 30-357)
Technique: RNA Bind-n-Seq
Form: RNA
Matrix: in vitro
Concentration: not given
Notes: RNA with constant flanks, human and mouse sites, ends assumed
Reference: input RNA pool
Reading: higher = stronger binding
Residues (chain): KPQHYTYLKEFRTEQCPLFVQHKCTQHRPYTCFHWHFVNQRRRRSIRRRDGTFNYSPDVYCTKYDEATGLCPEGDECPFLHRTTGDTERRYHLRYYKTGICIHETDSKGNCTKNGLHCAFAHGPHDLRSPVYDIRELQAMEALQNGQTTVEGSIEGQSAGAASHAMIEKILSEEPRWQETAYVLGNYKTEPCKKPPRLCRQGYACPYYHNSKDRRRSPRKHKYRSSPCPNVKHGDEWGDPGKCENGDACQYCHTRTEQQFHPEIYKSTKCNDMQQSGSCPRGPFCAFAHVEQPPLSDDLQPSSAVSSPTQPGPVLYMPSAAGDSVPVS
Sequence | bound/input enrichment [ratio]
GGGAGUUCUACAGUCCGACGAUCCACUGGGUCUACUAUCUGUAAAAAAUAUACAUAUAAAUAUAUAUAUACUGUUUGUUUAAAAUAGAGUAUUUUUAUUUCAUUCCUUAACUCAUCAUCACAGCAGUGGUAUUGCACUUCAGACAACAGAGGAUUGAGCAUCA | 2.01
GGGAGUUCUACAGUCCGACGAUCUGUGUCUUACGUGCCACCACGGCGUUGUACCUGUAGGACUCUCAUUCGGGAUGAUUGGAAUAGCUUCUGGAAUUUGUUCAAGUUUUGGGUAUGUUUAAUCUGUUAUGUACUAGUGUUCUGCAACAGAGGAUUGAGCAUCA | 0.78
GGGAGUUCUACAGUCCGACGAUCCGGCCUGGGAGGCGCGCAGCCGGCGGCCAGAGCGGCUUGUGGGAAGCGGACUUUCACGCAGGCAACGGCGGUGGCUCGUUACUGACUGGAAGCCGAUCAGGAGAACAAGCUCUGGUGUCCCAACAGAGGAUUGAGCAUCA | 0.082
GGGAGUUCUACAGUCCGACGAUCGAGGUGGUUCCUAUUCACCAACUGGACAUUCCUGUUGAUAACCCAAUCGAGAGCAAUAACAUUUUUCUGGUGGCCCCUUUGAUCAUCUGCCACGUGAUUGACAAGCGCAGUCCCCUGUAUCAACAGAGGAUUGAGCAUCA | 0.254
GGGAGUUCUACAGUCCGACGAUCGAUGUCUGCGUGUUUGCAGCCCAAGAAGAUCUAGAGACCAUGCAAGCAUUUGCUCAGGUUUUUAACAAGUUAAUCAGGCGCUACAAAUACCUGGAGAAAGGUUUUGAAGAUGAAGUAAAACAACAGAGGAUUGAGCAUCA | 0.146
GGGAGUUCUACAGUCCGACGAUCGUCAGAUUUGAGAAUGCAGAUCUGAACGACACAUCACGGAAUCUAGAAUUUCAUGAACUGCAUAGCACUGGAAAUGAGCCUCCUCUGCUGGUUAUGAUCGGCUACAGUGACGGAAUGCAGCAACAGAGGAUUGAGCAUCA | 0.215
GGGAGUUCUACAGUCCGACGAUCGAUACAAAAAACAAGGAUGGAGUUCUGGUGGAUGAAUUUGGAUUGCCACAGAUCCCUGCUUCAUAGAUUUGCAUCAUUCAAGCAUAUCUUGUAAAACAAACACAUAUUAUGGGACUAGGACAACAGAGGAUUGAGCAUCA | 0.421
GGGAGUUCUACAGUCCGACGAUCCCAAUUGACAAUGGUUCAAAAAUCACCAGCUACCUUUUAGAAUGGGAUGAGGGAAAGAGAAACAGUGGUUUCAGACAGUGUUUCUUUGGAAGCCAGAAGCACUGCAAACUGACAAAGCUCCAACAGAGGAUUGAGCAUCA | 0.355

Block 2
Target: Fragile X messenger ribonucleoprotein 1, C-terminal low-complexity region (Fmr1, Mus musculus, UniProt P35922)
Technique: RNA Bind-n-Seq
Form: RNA
Matrix: in vitro
Concentration: 200 nM
Notes: whole 134-nt RNA, ends assumed
Added: 150 mM KCl
Reference: input library
Reading: higher = stronger binding
Sequence | log2 enrichment
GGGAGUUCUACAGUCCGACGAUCUGGCCCUGGUGGCAUGCGGGGAGGAAGAGUUGGCCUCAUGGAUCGUGGUGGUCCCGGUGGAAUGUUCAGAGGUGGCCGUGGUGGAGACAGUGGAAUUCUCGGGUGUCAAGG | -0.104
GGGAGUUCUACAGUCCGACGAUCUCCUCAAGUCCUGUGCUACACAUCGUAUGUACCGAAUCGGGGUGGGUGGUGGAAAGUAUUAUGUUACGCCGUUCGGAUCUGCACUUCCAGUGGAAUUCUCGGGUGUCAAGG | 0.635
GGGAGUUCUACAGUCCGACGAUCCCUGUGCUACACAUCGUAUGUACCGAAUCGGGUUUUUUUGGGUUUUUUUGGGUUUUUGGGAAAGUAUUAUGUUACGCCGUUCGGAUCUGCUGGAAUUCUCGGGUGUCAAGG | -0.311
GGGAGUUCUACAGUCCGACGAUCUUUUCAAGGGCCGCUUGAAGAUGCCAUUGAAGAUGAGGAAGAAGAAUGUCCAUCAGAGGAAACAGACAUCAUCUCCAAAGGAGACUUUCCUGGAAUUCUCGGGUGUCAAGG | -1.55
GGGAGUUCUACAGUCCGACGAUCGUCCUGUGCUACACAUCGUAUGUACCGAAUCGGGUUUGGGAAAAAAAGGGUUUUUGGGAAAGUAUUAUGUUACGCCGUUCGGAUCUGCACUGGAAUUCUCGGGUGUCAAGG | 0.0431
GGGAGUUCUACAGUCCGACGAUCUCCUGUGCUACACAUCGUAUGUACCGAAUCGGCCCCCCGGGCCCCCCGGCCCCCCGGGGAAAGUAUUAUGUUACGCCGUUCGGAUCUGCAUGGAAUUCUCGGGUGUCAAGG | -0.139
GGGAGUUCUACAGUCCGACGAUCACCAUGCAGGUGGGCAUCUUUGGGAAGUGGGGCAAGGGGGGGAUAGGGAGGGGGGUAACACUUUGGGAACAGGUGGUCCCAGGUCCUUUCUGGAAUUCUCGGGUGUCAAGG | 0.71
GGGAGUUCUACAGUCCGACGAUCUCCUGUGCUACACAUCGUAUGUACCGAAUCGGGGUUUGGGGUUUGGGGAAAAAAAGGGGAAAGUAUUAUGUUACGCCGUUCGGAUCUGCAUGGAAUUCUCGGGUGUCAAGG | 0.526
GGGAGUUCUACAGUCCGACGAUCAAGUCCUGUGCUACACAUCGUAUGUACCGAAUCGGGGAAAGGGAAAGGGAAAGGGGAAAGUAUUAUGUUACGCCGUUCGGAUCUGCACUUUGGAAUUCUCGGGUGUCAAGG | 0.423

Block 3
Target: TAR DNA-binding protein 43, full length, His tag (TARDBP, Homo sapiens, UniProt Q13148, residues 1-414)
Technique: RNA Bind-n-Seq
Form: RNA
Matrix: in vitro
Concentration: 20 nM
Notes: 6-mer, flanks averaged, single round
Added: 150 mM KCl
Reference: input library
Reading: higher = stronger binding
Sequence | 6-mer enrichment (R)
UUCGUA | 0.575
AAAUCA | 0.605
CGUGGA | 1.4
ACUGAU | 0.613
GACAAG | 1.1
GAAGGU | 1.37
UGAACU | 0.642
CCGUCC | 0.626
ACUGGA | 0.84
UAGACG | 0.907
UUAGAA | 0.685
CUACAA | 0.634
GCGCCA | 0.953
ACAUAG | 0.684
UAAAUG | 0.749
CAUAAC | 0.631
GUGAGA | 1.54
AUCGUA | 0.6
AACCUU | 0.601
UCUGGA | 0.776
AGUUCC | 0.588
AUACAC | 0.622
GUAGGA | 1.4
AGGGAA | 2.25

Block 4
Target: RNA binding protein fox-1 homolog 2, RRM domain, GST-SBP tag (RBFOX2, Homo sapiens, UniProt O43251-10, residues 100-194)
Technique: RNA Bind-n-Seq
Form: RNA
Matrix: in vitro
Concentration: 365 nM
Notes: natural RNA segment, single round, ends assumed
Reference: no-protein control
Reading: higher = stronger binding
Target sequence (chain): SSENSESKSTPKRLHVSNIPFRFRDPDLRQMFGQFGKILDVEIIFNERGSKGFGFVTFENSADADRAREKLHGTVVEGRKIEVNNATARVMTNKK
Sequence | RBNS enrichment (R)
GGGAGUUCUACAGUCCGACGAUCACUCGUGGCCAGACGGACAGCACUCCUGGCCAGAUGGACCCACCAGUAUCAGCGAGGAGGGGCUUGUCUCCUUCAGAGUUAACAUGGAGGACGAUUGGAGAAUCUCCCUGUGGAAUUCUCGGGUGCCAA | 0.328
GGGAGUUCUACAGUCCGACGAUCACGUGUCCAGCCACUGCCUGCUGAGGGCACUGCAGGCUUGCUGGAGCACGCUGGAGCACAUCCUGUCCCAUGAGGGAGGAGGAGGAGCGUUGGCCUAACACUGGCUGUUUUGGAAUUCUCGGGUGCCAA | 0.612
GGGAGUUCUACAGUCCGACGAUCUAAUGAGAAUGAAAAGCACAUGGGUUGAUGGGAAGGGACAAGAUUACCACGUUAGGAGGGUGAGCAGCCCUCUGCUAUGUGCCCAGGACCCUGCCUGGACAUUGCAUUUCUGGAAUUCUCGGGUGCCAA | 2.08
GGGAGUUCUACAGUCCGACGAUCUUUUAAUUGCCCUUGGUAUCCUGAUAUUCUCAUUUUCAAGGUGAGGUAAAGACAGGGUUUCCUUACUUAACGGAUUUGAGCGCUUCUGUUCUCCAAACACAAUGGAAUUUUGGAAUUCUCGGGUGCCAA | 0.31
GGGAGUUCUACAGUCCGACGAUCUCAUGCAGCCUCAGCCCAGGCUAACCCAGUCAGUGUUUUCACCACGUCUGACCUUUCUCUCUGCACUUAGGAUUGGUGUCCACUUGUAGAUUUCUUUCAACACAGUAUAAUGGAAUUCUCGGGUGCCAA | 1.16
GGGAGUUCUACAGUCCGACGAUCUGCAGUCUUCUCUCCACCCUGUACCCCGGAGUCCUGAUUGGAUGUCUGCAGAGGCAGAUGGGGCUCCCACCAUAUUUUCAGGCCGCAAGUGCAAUUCCUGAAGGCAUCAGUGGAAUUCUCGGGUGCCAA | 0.447
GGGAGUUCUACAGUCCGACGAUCACCAGUGAGAGCCCCAAUCCCUGCAGUUUUGUGGCUUCAAGUGUGGGUGGACAGUCCUAAUGGGGAUCUCCAGCUCCUUCCUGUGGGCUGCCACAGACAGCUACCCCCAGUGGAAUUCUCGGGUGCCAA | 0.321
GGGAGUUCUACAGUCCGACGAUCGCCGCGCAGGGCCACCUCCCUGGGUGGAUGCAUCACACUAAGGAAGUGAGUGCCAAGGGGAUUUAGUGGUGUGGUUCUUUCAAAGGGAGGUCAGGGUCAAUGGGAAUCUGUGGAAUUCUCGGGUGCCAA | 1.09
